Results of several laboratories.
Each numbered part is a random draw from the data of one study; scales do not carry over between parts.

Set 1 — method: RNA Bind-n-Seq; molecule type: RNA; sample: in vitro; concentration: 200 nM; notes: whole 134-nt RNA, ends assumed; together with: 150 mM KCl; reference: input library; reading: higher = stronger binding; quantity: log2 enrichment
Target: Ras GTPase-activating protein-binding protein 1, full length (G3BP1, Homo sapiens, UniProt Q13283)
UniProt Q13283, sequence (whole entry, looked up): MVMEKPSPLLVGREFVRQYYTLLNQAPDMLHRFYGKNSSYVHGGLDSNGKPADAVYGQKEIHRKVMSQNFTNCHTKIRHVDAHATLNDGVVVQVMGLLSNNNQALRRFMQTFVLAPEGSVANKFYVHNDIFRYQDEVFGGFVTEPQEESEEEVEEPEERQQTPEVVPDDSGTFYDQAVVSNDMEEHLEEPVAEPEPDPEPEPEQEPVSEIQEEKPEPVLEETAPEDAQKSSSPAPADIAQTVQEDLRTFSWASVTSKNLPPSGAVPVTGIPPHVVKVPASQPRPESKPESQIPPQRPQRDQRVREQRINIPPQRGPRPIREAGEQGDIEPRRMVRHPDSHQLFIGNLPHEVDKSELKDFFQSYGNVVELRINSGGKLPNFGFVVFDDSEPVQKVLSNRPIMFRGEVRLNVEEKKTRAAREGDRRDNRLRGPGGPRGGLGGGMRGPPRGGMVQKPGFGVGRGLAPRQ
Shared flanks, not repeated: GGGAGUUCUACAGUCCGACGAUC … UGGAAUUCUCGGGUGUCAAGG
CUCAAGUCCUGUGCUACACAUCGUAUGUACCGAAUCGGGAGGGAAAGGGUGGGAAAGUAUUAUGUUACGCCGUUCGGAUCUGCACUUCCA: 1.29
CUCAAGUCCUGUGCUACACAUCGUAUGUACCGAAUCGGGGCGGGGCGGGGCGGGAAAGUAUUAUGUUACGCCGUUCGGAUCUGCACUUCC: 1.33
GCAGGAAGUAAAAACAAAUGGAAAUGAUUCGGAUAGUGGCAGGGGUGGGGGUUGCUAAGGAAAGGGUGGGAUGGGAGUGGGUAAAGAGUU: 1.33
AAGUCCUGUGCUACACAUCGUAUGUACCGAAUCGGGGAAAGGGAAAGGGGAAAGGGAAAGUAUUAUGUUACGCCGUUCGGAUCUGCACUU: 0.277
UGGGAGGUGGAUUUUGUUUAUUUUUUUAGCUCAUUUCCAGGGGUGGGAAUUAUUUUUUAAUAUGUGUCAUGAAUAAAGUUGUUUUUGAAA: 0.276
AAGUCCUGUGCUACACAUCGUAUGUACCGAAUCGGGUUUGGGGUUUGGGUUUGGGGAAAGUAUUAUGUUACGCCGUUCGGAUCUGCACUU: 0.387
CACAGACAACACGCACCCACACAGACACAGAGGGAAGGGGUUGGGAUGGGGACAGGGUGCACAGCAGGGCGGGGUAGGAAAACAGCCCCU: 1.53
GUCCUGUGCUACACAUCGUAUGUACCGAAUCGGUUUUUGGAAAAAAAGGUUUUUUUGGAAAGUAUUAUGUUACGCCGUUCGGAUCUGCAC: -1.29

Set 2 — cell line: HEK-293T/ACE2; concentration: concentration not given; time: 16 (unit not given); reference: vehicle; quantity: viability
CCOC(=O)[C@H](CCc1ccccc1)N[C@@H](C)C(=O)N1[C@H](C(=O)O)C[C@@H]2CCC[C@@H]21: 91.8%
CCOC(=O)[C@H](CCc1ccccc1)N[C@@H](C)C(=O)N1CCC[C@H]1C(=O)O: 94.8%
C[C@H]1C[C@H]2[C@@H]3CCC4=CC(=O)C=C[C@]4(C)[C@@]3(F)[C@@H](O)C[C@]2(C)[C@@]1(O)C(=O)CO: 102%
N=C1CCCN1Cc1[nH]c(=O)[nH]c(=O)c1Cl: 102%

Set 3 — method: protein-binding microarray; molecule type: double-stranded DNA, one strand shown; sample: in vitro; concentration: not given; reading: higher = stronger binding; quantity: E-score
Target: Protein C-ets-1 (ETS1, Homo sapiens, UniProt P14921, residues 1-441, full length assumed)
Notes: k-mer, scored over probes, only values ≥0.25
Construct (chain): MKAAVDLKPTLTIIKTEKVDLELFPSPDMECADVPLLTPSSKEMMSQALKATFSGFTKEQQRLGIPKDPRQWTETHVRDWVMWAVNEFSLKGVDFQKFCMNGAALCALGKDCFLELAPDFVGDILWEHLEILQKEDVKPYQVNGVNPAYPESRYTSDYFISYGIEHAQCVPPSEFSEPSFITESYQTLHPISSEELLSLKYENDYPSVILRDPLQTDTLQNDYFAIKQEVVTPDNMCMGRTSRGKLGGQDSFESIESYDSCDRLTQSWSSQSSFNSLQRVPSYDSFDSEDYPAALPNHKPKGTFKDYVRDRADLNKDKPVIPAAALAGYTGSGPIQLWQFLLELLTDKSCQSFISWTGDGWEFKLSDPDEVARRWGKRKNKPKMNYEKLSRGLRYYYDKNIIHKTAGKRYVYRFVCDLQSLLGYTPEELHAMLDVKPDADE
CCGGTTGA: 0.287
GGGAAACC: 0.287
GGGCGGAC: 0.302
AGGAAGTG: 0.473
ACATCCTC: 0.428

Set 4 — observed: enzyme activity; mode: inhibitor; concentration: 20 µM; quantity: inhibition
Target: Replicase polyprotein 1ab, polymerase (rep, Severe acute respiratory syndrome coronavirus 2, UniProt P0DTD1)
CC(C)OC(=O)N[C@H]1Cc2c(n(Cc3ccccn3)c3ccc(C#N)cc23)C1: 3.24%
CN(C)CCC(c1ccc(Br)cc1)c1ccccn1 (centres unmarked): -7.76%
COc1cc2c(cc1OC)CN(C(=O)[C@@H](NCc1ccncc1)C(C)(C)C)CC2: 0.39%
COc1cc2c(cc1OC)CC(=O)N(CCCN(C)C[C@H]1Cc3cc(OC)c(OC)cc31)CC2: -4.86%
CNC(=O)[C@@H](Cc1ccccc1)N(C)C(=O)[C@@H](Cc1ccc2ccccc2c1)N(C)C(=O)/C=C/CC(C)(C)N: 9.35%
CCSc1ccc2c(c1)N(CCCN1CCN(C)CC1)c1ccccc1S2: -3.64%
O=C(Nc1cnn2ccc(N3CCC[C@@H]3c3cc(F)ccc3F)nc12)N1CC[C@H](O)C1: -2.57%
O=C(O)[C@H](Cc1ccccc1)NCc1ccc(Cl)cc1: 3.26%
Cc1ncc(-c2csc(N=C(N)N)n2)[nH]1: 3.29%
CC1(CN2CCC(n3c(=O)[nH]c4ccccc43)CC2)OCc2ccccc2-n2cccc21 (centres unmarked): -12.4%
C=CCNC1=C2C[C@@H](C)C[C@H](OC)[C@H](O)[C@@H](C)/C=C(\C)[C@H](OC(N)=O)[C@@H](OC)/C=C\C=C(/C)C(=O)NC(=CC1=O)C2=O: 5.06%
CC(C)C(=O)Oc1ccc(CO)cc1[C@H](CCN(C(C)C)C(C)C)c1ccccc1: -1.62%
c1ccc(-c2ncc(CN3CCN(c4ncccn4)CC3)[nH]2)cc1: -15.6%
C/C(=N\NC(=O)C(NC(=O)c1ccccc1)c1n[nH]c(=O)c2ccccc12)c1cccc(Br)c1 (centres unmarked): 0.38%
CC[n+]1c(-c2ccccc2)c2cc(N)ccc2c2ccc(N)cc21: 97.7%
O=S(=O)(O)c1ccc(-c2c3nc(c(-c4ccc(S(=O)(=O)O)cc4)c4ccc([nH]4)c(-c4ccc(S(=O)(=O)O)cc4)c4nc(c(-c5ccc(S(=O)(=O)O)cc5)c5ccc2[nH]5)C=C4)C=C3)cc1: 31.3%
OC[C@H]1O[C@@H](n2cnc3c(N[C@H]4CCC[C@@H]4O)ncnc32)[C@H](O)[C@@H]1O: 0.57%
COc1ccc(S(=O)(=O)N2CCC[C@H]2C(=O)Nc2cc(C)cc(C)c2)cc1: 0.77%
CCCCC#Cc1nc(NC)c2ncn([C@@H]3O[C@H](CO)[C@@H](O)[C@H]3O)c2n1: -7.6%
CCN1CCN(c2cc(-c3ccc(F)cc3)c3c(n2)CCCCCC3)CC1: -4.29%
CN1CCN(c2ccc3[nH]c(-c4ccc5[nH]c(-c6ccc(O)cc6)nc5c4)nc3c2)CC1: 59.1%
FC(F)(F)c1cccc(C2=CCN(CCc3ccc4ccccc4c3)CC2)c1: -3.32%
C=CC(=O)Nc1cccc(Oc2nc(Nc3ccc(N4CCN(C)CC4)cc3)nc3ccsc23)c1: 9.86%
N#Cc1ccc(Cn2cncc2CN2CCN(c3cccc(Cl)c3)C(=O)C2)cc1: 7.51%
Cc1onc(-c2c(Cl)cccc2Cl)c1C(=O)N[C@@H]1C(=O)N2[C@@H]1SC(C)(C)[C@@H]2C(=O)O: 12.9%

Set 5 — method: protein-binding microarray; molecule type: double-stranded DNA, one strand shown; sample: in vitro; concentration: 250 nM; notes: 60-bp whole probe; together with: salmon DNA 0.4 mg/ml; reference: random background probes; reading: higher = stronger binding; quantity: log fluorescence; shared flanks, not repeated: GCCTAGCAC … GTCTTGATTCGCTTGACGCTGCTG
Target: Interferon regulatory factor 5, full length, phosphomimetic (IRF5, Homo sapiens, UniProt Q13568-2, residues 1-514, K96S/S451D/S453D/S456D/S462D)
GACGGTTTCCTACTGCTGAAGTGCTAG: 0.362 z-score
GTAGGTTTCGACACTGGGTTAGTGCTA: 5.31 z-score
GACGGTTTCGACTTTCGGGAGGTGCTA: 8.07 z-score
GACGGTTTCGACTATCGGGACGTGCTA: 7.13 z-score
GACGATCTCAGTATCGTGACGTGCTAG: 0.522 z-score
GTCGGTATCGGACTGGGGACGTGCTAG: 1.37 z-score
TCATGTCTGGGTCTTGGACTGTGCTAG: -0.101 z-score
TTAGGTATCCCTTTCCTTTAGTGCTAG: 0.531 z-score

Set 6 — observed: enzyme activity; mode: inhibitor; concentration: 20 µM; notes: primary screen; quantity: inhibition
Target: Replicase polyprotein 1ab, main protease (rep, Severe acute respiratory syndrome coronavirus 2, UniProt P0DTD1)
O=C1C2CC=CCC2C(=O)N1SC(Cl)(Cl)Cl (centres unmarked): 99.8%
Oc1ccc2c3c1O[C@H]1c4[nH]c5c(c4C[C@@]4(O)[C@@H](C2)N(CC2CC2)CC[C@]314)C[C@@]1(O)[C@H]2Cc3ccc(O)c4c3[C@@]1(CCN2CC1CC1)[C@H]5O4: 93.2%
Nc1nnc(Sc2ncc([N+](=O)[O-])s2)s1: 99.9%

Excerpt of the above (set 4):
CC1(CN2CCC(n3c(=O)[nH]c4ccccc43)CC2)OCc2ccccc2-n2cccc21 (centres unmarked): -12.4%
O=S(=O)(O)c1ccc(-c2c3nc(c(-c4ccc(S(=O)(=O)O)cc4)c4ccc([nH]4)c(-c4ccc(S(=O)(=O)O)cc4)c4nc(c(-c5ccc(S(=O)(=O)O)cc5)c5ccc2[nH]5)C=C4)C=C3)cc1: 31.3%
CCN1CCN(c2cc(-c3ccc(F)cc3)c3c(n2)CCCCCC3)CC1: -4.29%
C/C(=N\NC(=O)C(NC(=O)c1ccccc1)c1n[nH]c(=O)c2ccccc12)c1cccc(Br)c1 (centres unmarked): 0.38%
Cc1ncc(-c2csc(N=C(N)N)n2)[nH]1: 3.29%
